Assay results from different studies.
Values joined by “and” are separate records of one study, mostly repeats; a detail may differ.
Target: Beta-2 adrenergic receptor (ADRB2, Homo sapiens, UniProt P07550)
Chain of UniProt P07550 (whole entry, looked up): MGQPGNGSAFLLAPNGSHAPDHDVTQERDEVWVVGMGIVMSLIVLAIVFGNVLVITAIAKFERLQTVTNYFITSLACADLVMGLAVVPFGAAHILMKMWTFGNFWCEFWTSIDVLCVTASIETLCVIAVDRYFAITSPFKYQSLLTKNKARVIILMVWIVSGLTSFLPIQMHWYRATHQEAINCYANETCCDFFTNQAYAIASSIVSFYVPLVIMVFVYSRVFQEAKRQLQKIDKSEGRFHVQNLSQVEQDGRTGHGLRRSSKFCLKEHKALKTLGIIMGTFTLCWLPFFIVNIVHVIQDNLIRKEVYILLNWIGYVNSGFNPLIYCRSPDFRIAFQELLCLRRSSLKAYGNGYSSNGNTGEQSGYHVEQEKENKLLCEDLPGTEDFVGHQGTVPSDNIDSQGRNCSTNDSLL

Compound = Cc1sc2c(c1C)C(c1ccc(Cl)cc1)=NC(CC(=O)OC(C)(C)C)c1nnc(C)n1-2 (centres unmarked); test = ligand displacement, radioligand; conditions = 1 µM; measurement = remaining binding; value = 96.5%
Compound = C[C@H](NCc1ccc(-c2ccc(C(F)(F)F)cc2)cc1)C(N)=O; test = radioligand binding, SafetyScreen panel; conditions = 1 µM, species human, together with: 0.20 nM [3H]CGP-12177; measurement = inhibition; value = 0%
Compound = O=C(O)c1ccc(-c2nc(-c3ccccc3Cl)c3sccn23)cc1; test = radioligand binding; conditions = 10 µM, together with: ICI118551; scale = relative to: control; measurement = specific binding; value = 105% and 95.9%
Compound = CCc1nnc(-c2c(OC)cc(-c3cnc4cc(-c5cnn(C)c5)ccn34)cc2OC)o1; test = antagonist, radioligand binding; conditions = 10 µM; scale = relative to: control; measurement = specific binding; value = 100%
Compound = CN[C@@H]1[C@H](O)[C@H](NC)[C@H]2O[C@]3(O)[C@H](O[C@@H]2[C@H]1O)O[C@H](C)C[C@H]3NC(=O)Cc1cc(Cl)ccn1; test = ligand displacement, radioligand; conditions = 10 µM; measurement = inhibition; value = 4%
Compound = COc1ccc(F)cc1S(=O)(=O)Nc1cnc2c(c1)C(=O)NCCO2; test = ligand displacement, radioligand; conditions = 10 µM; measurement = inhibition; value = 4%
Compound = Cc1cc(Nc2nc(C[C@@]3(C(=O)O)CCN(Cc4cccc(Cl)c4F)[C@H](C)C3)cc(C)c2F)[nH]n1; test = inhibitor; conditions = 10 µM; measurement = inhibition; value = -1.24%
Compound = Cc1cc(-c2ccc3ccccc3c2)nnc1NCCN1CCN(C)CC1; test = antagonist; conditions = 10000 nM; scale = relative to: control; measurement = activity; value = 0%
Compound = CS(C)(=O)=Nc1ccc(-c2ccc(-c3nc4cc(O[C@@H]5CO[C@H]6[C@@H]5OC[C@H]6O)[nH]c4cc3F)cc2)cc1; test = calcium signal, antagonist; conditions = 10 µM; measurement = inhibition; value = -5%
Compound = C/C(=N\OCCCN1CCCCC1)c1ccc(C(F)(F)F)cc1; test = antagonist, cAMP; conditions = 10 µM; measurement = inhibition; value = 14.7%
Compound = N[C@H](C(=O)N1CCCC1)C1CCN(c2nccc3c(-c4ncc(Cl)cc4Cl)cccc23)CC1; test = functional response, agonist; conditions = 10 µM; measurement = response; value = 1%

Some of these lines once more:
Compound = Cc1cc(Nc2nc(C[C@@]3(C(=O)O)CCN(Cc4cccc(Cl)c4F)[C@H](C)C3)cc(C)c2F)[nH]n1; test = inhibitor; conditions = 10 µM; measurement = inhibition; value = -1.24%
